# Experimental data of several laboratories.
# ± marks the error that the study gave.
SMILES,test,system,setting,tissue uptake
CC(C)[C@H](NC(=O)[C@@H]1CCCN1C(=O)[C@H](CCCNC(=N)N)NC(=O)[C@H](CS)NC(=O)[C@H](Cc1c[nH]c2ccccc12)NC(=O)[C@H](CCCNC(=N)N)NC(=O)[C@@H](Cc1ccccc1)NC(=O)[C@H](Cc1c[nH]cn1)NC(=O)[C@H](CCC(=O)O)NC(=O)[C@H](CS)NC(=O)[C@H](CS)NC(=O)[C@@H]1CC(=O)N[C@@H](CCCNC(=N)N)C(=O)NCC(=O)N[C@@H](CC(=O)O)C(=O)N[C@H](Cc2ccc(O)cc2)C(=O)N1)C(N)=O [technetium-99m labelled],,"C57 mice B16/F1 melanoma female, tumor","iv, 2 h, added: NDP-MSH 10 µg co-injected",2.55 ± 0.07 %ID/g
CN1C(=O)[C@@H](Cc2ccc(O)c(I)c2)NC(=O)CNC(=O)[C@H](Cc2ccc3ccccc3c2)NC(=O)[C@H](CCCNC(=N)N)NC(=O)[C@H]1CCCNC(=O)c1ccc(CNC(=O)CN2CCN(CC(=O)O)CCN(CC(=O)O)CCN(CC(=O)O)CC2)cc1 [lutetium-177 labelled],measured: 177Lu radioactivity,"female CB-17 SCID mice, Daudi xenograft, small intestine","intravenous, 0.16 nmol per mouse, 48 h",0.11 ± 0.02 %ID/g
CCCC[C@H](NC(=O)CN1CCC(NC(=O)CN2CCN(CC(=O)O)CCN(CC(=O)O)CCN(CC(=O)O)CC2)CC1)C(=O)N[C@H]1CC(=O)NCCCC[C@@H](C(N)=O)NC(=O)[C@H](Cc2c[nH]c3ccccc23)NC(=O)[C@H](CCCNC(=N)N)NC(=O)[C@@H](Cc2ccccc2)NC(=O)[C@H](Cc2c[nH]cn2)NC1=O [gallium-68 labelled],,"C57BL/6J mice male B16-F10 tumour, intestine","2 h post injection, unblocked",0.4 ± 0.1 %ID/g
CCCC[C@H](NC(=O)CNC(=O)CNC(=O)CN1CCN(CC(=O)O)CCN(CC(=O)O)CC1)C(=O)N[C@H]1CC(=O)NCCCC[C@@H](C(N)=O)NC(=O)[C@H](Cc2c[nH]c3ccccc23)NC(=O)[C@H](CCCNC(=N)N)NC(=O)[C@@H](Cc2ccccc2)NC(=O)[C@H](Cc2c[nH]cn2)NC1=O [gallium-67 labelled],,"female C57 mice, B16/F1 melanoma, bone","intravenous, 0.037 MBq, 24 h",0.71 ± 0.24 %ID/g
O=C([O-])c1cccc(CN(CCN(Cc2cn(Cc3ccccc3)nn2)Cc2cccc(C(=O)[O-])n2)Cc2cn(Cc3ccccc3)nn2)n1.[64Cu+2],,"healthy athymic nude mice, small intestine","intravenous, 15 min",63.7 %ID/g
NC12CNCCNCC(NCc3ccc(CNC(=O)CCCC(=O)NCc4ccc(-c5nncnn5)cc4)cc3)(CNCCNC1)CNCCNC2.[64Cu+2],,"athymic nude mice, SW1222 xenograft, kidney","24 h post-injection, 24 h pretargeting interval, added: huA33-TCO pretargeting",2 ± 0.24 %ID/g
N=C(N)NCCC[C@H](NC(=O)CON=C[C@H](F)[C@@H](O)[C@H](O)[C@H](O)CO)C(=O)NCC(=O)N[C@@H](CC(=O)O)C(=O)O [fluorine-18 labelled],,"nude mice U-87 MG tumour, liver","intravenous, 0.5 h",0.44 ± 0.03 %ID/g
CC(C)[C@H](NC(=O)[C@@H]1CCCN1C(=O)[C@H](CCCNC(=N)N)NC(=O)[C@H](CS)NC(=O)[C@H](Cc1c[nH]c2ccccc12)NC(=O)[C@H](CCCNC(=N)N)NC(=O)[C@@H](Cc1ccccc1)NC(=O)[C@H](Cc1c[nH]cn1)NC(=O)[C@H](CCC(=O)O)NC(=O)[C@H](CS)NC(=O)[C@H](CS)NC(=O)CNC(=O)[C@@H]1CC(=O)N[C@@H](CCCNC(=N)N)C(=O)NCC(=O)N[C@@H](CC(=O)O)C(=O)N[C@H](Cc2ccc(O)cc2)C(=O)N1)C(N)=O [technetium-99m labelled],,"C57 mice B16/F1 melanoma female, kidneys","iv, 0.037 MBq, 2 h",20.9 ± 4.51 %ID/g
CCCC[C@H](NC(=O)CNC(=O)CNC(=O)CN1CCN(CC(=O)O)CCN(CC(=O)O)CCN(CC(=O)O)CC1)C(=O)N[C@H]1CC(=O)NCCCC[C@@H](C(N)=O)NC(=O)[C@H](Cc2c[nH]c3ccccc23)NC(=O)[C@H](CCCNC(=N)N)NC(=O)[C@@H](Cc2ccccc2)NC(=O)[C@H](Cc2c[nH]cn2)NC1=O [gallium-67 labelled],,"female C57 mice, B16/F1 melanoma, kidneys","intravenous, 0.037 MBq, 0.5 h",16.4 ± 2.99 %ID/g
O=C([O-])CN1CCN(CC(=O)[O-])CCN(CC(=O)[O-])CCN(CC(=O)[O-])CC1.[64Cu+2],,"healthy athymic nude mice, skin","intravenous, 15 min",1.76 %ID/g
CCCC[C@@H]1NC(=O)[C@@H](NC(=O)[C@H](CCC(=O)O)NC(=O)CNC(=O)CN2CCN(CC(=O)O)CCN(CC(=O)O)CCN(CC(=O)O)CC2)CCCCNC(=O)C[C@@H](C(N)=O)NC(=O)[C@H](C(C)C)NC(=O)[C@@H]2CCCN2C(=O)[C@H](CCCNC(=N)N)NC(=O)CNC(=O)[C@H](Cc2c[nH]c3ccccc23)NC(=O)[C@H](CCCNC(=N)N)NC(=O)[C@@H](Cc2ccccc2)NC(=O)[C@H](Cc2c[nH]cn2)NC(=O)[C@H](CCC(=O)O)NC1=O [gallium-67 labelled],,"C57 mice, B16/F1 flank melanoma, skin","intravenous, 2 h, added: blocking peptide 10 µg",0.04 %ID/g
O=C([O-])CN1CCN(CC(=O)[O-])CCN(CC(=O)NCCc2ccc3c(c2)C2C=CCC2C(c2cc4c(cc2Br)OCO4)N3)CCN(CC(=O)[O-])CC1.[111In+3] (stereo not shown),,"mice with Hec50 tumour xenograft, urinary bladder",4 h,0.36 ± 0.16 %ID/g
O=C([O-])CN1CCN(CC(=O)[O-])CCN(CC(=O)NC[C@H]2CC[C@H](C(=O)N[C@H](Cc3cnc4ccccc4c3)C(=O)NCCCC[C@H](NC(=O)N[C@@H](CCC(=O)O)C(=O)O)C(=O)O)CC2)CCN(CC(=O)[O-])CC1.[64Cu+2],ex vivo gamma counting,"22Rv1 tumour-bearing mice, kidney","intravenous, 0.74 MBq, 24 h",9.86 ± 1.12 %ID/g

# A few entries again:
SMILES,test,system,setting,tissue uptake
O=C([O-])CN1CCN(CC(=O)[O-])CCN(CC(=O)NC[C@H]2CC[C@H](C(=O)N[C@H](Cc3cnc4ccccc4c3)C(=O)NCCCC[C@H](NC(=O)N[C@@H](CCC(=O)O)C(=O)O)C(=O)O)CC2)CCN(CC(=O)[O-])CC1.[64Cu+2],ex vivo gamma counting,"22Rv1 tumour-bearing mice, kidney","intravenous, 0.74 MBq, 24 h",9.86 ± 1.12 %ID/g
